{"data": "Assay results of several laboratories", "note": "Protocols differ between the studies behind these lines. Numbers after ± are the reported error."}
{"SMILES": "N=C(N)NCCC[C@H](NC(=O)[C@H](CCCNC(=N)N)NC(=O)[C@H](Cc1ccccc1)NC(=O)[C@H](Cc1c[nH]c2ccccc12)NC(=O)[C@H](Cc1c[nH]c2ccccc12)NC(=O)[C@H](Cc1ccccc1)NC(=O)[C@H](CCCNC(=N)N)NC(=O)[C@H](CCCNC(=N)N)NC(=O)[C@@H](N)Cc1ccccc1)C(=O)N[C@@H](Cc1ccccc1)C(N)=O", "test system": "ICR mouse", "conditions": "intraperitoneal, 5, 10, 20 mg/kg daily, 3 days", "how to read": "baseline: saline", "endpoint": "serum ALP, ALT, BUN, creatinine, bilirubin", "value": "no effect"}
{"SMILES": "Cc1ccccc1CN1CCC(O)(c2ccc(Cl)c(C(F)(F)F)c2)CC1", "test": "LC-MS", "test system": "BALB/c mouse, serum", "conditions": "oral, 50 mg/kg", "endpoint": "serum concentration", "value": "< 100 ng/mL"}
{"SMILES": "CC(=O)N[C@H](C(=O)N[C@@H](CCCC(=O)OC(C)(C)C)C(=O)N[C@@H](CCC1CCCCC1)C(=O)N[C@@H](CC(=O)O)C(=O)COC(=O)c1c(C)cccc1C)C(C)(C)C", "test system": "C57BL/6N mouse", "conditions": "dose not given", "endpoint": "serum AST and ALT", "value": "increased"}
{"SMILES": "CC(C)[C@H](NC(=O)[C@H](Cc1c[nH]c2ccccc12)NC(=O)[C@H](Cc1ccccc1)NC(=O)[C@@H](NC(=O)[C@@H](NC(=O)[C@H](CCCCN)NC(=O)[C@@H](N)CCCCN)C(C)C)C(C)C)C(=O)N[C@@H](CCCCN)C(=O)N[C@@H](Cc1ccccc1)C(=O)N[C@@H](CCCCN)C(N)=O", "test": "ELISA, item: IgG2b", "test system": "mouse, serum", "conditions": "iv, 500 µg/kg twice, 5 days", "endpoint": "serum antibody level", "value": "0.265 ± 0.024 OD490"}
{"SMILES": "CCCCCCCCCCCCCCCC(=O)OCC(CSC[C@H](N)C(=O)N[C@@H](CO)C(=O)N[C@@H](CCCCN)C(=O)N[C@@H](CCCCN)C(=O)N[C@@H](CCCCN)C(=O)N[C@@H](CCCCN)C(=O)NCCCCCC(=O)N[C@@H](CCCCN)C(=O)N[C@@H](CC(C)C)C(=O)N[C@H](C(=O)N[C@@H](Cc1ccccc1)C(=O)N[C@@H](Cc1ccccc1)C(=O)N[C@@H](Cc1ccc2ccccc2c1)C(=O)O)C(C)C)OC(=O)CCCCCCCCCCCCCCC (some centres unmarked)", "test system": "C57BL/6J mouse", "conditions": "intraperitoneal, 15 mg/kg twice", "endpoint": "serum AST", "value": "no effect"}
{"SMILES": "CSCC[C@H](NC(=O)CNC(=O)[C@H](CC(=O)O)NC(=O)[C@@H](NC(=O)[C@@H](NC(=O)[C@@H](NC(=O)CNC(=O)[C@H](CCC(=O)O)NC(=O)[C@H](CCSC)NC(=O)[C@H](CC(=O)O)NC(=O)[C@H](C)NC(=O)[C@H](C)NC(=O)[C@@H](NC(=O)[C@H](CO)NC(=O)[C@@H](N)CC(C)C)[C@@H](C)O)C(C)C)C(C)C)[C@@H](C)O)C(=O)N[C@@H](C)C(=O)N[C@@H](CO)C(=O)NCC(=O)N[C@@H](CC(C)C)C(=O)N[C@@H](CC(=O)O)C(=O)N[C@@H](CCCCN)C(=O)N[C@@H](CC(=O)O)C(=O)N[C@@H](Cc1ccc(O)cc1)C(=O)N[C@@H](CC(C)C)C(=O)N[C@@H](CCCCN)C(=O)N1CCC[C@H]1C(=O)N[C@@H](CC(=O)O)C(=O)N[C@@H](CC(=O)O)C(=O)O", "test system": "CD-1 mouse, male, serum", "conditions": "intravenous, 480 mg/kg, 24 h", "endpoint": "serum concentration", "value": "103 to 149 ng/mL"}
{"SMILES": "CC[C@H](C)[C@H](NC(=O)[C@H](CC(=O)O)NC(=O)[C@H](CO)NC(=O)[C@H](CCC(N)=O)NC(=O)[C@H](C)NC(=O)[C@H](CC(=O)O)NC(=O)[C@H](CCC(=O)O)NC(=O)[C@H](Cc1c[nH]cn1)NC(=O)[C@H](Cc1ccc(O)cc1)NC(=O)[C@H](C)NC(=O)[C@H](CC(=O)O)NC(=O)[C@H](CCC(=O)O)NC(=O)[C@H](Cc1c[nH]cn1)NC(=O)[C@H](Cc1ccc(O)cc1)NC(=O)[C@H](C)NC(=O)[C@H](CC(=O)O)NC(=O)[C@H](CCC(=O)O)NC(=O)[C@H](Cc1c[nH]cn1)NC(=O)[C@H](Cc1ccc(O)cc1)NC(=O)[C@H](C)NC(=O)[C@H](CC(=O)O)NC(=O)[C@H](CCC(=O)O)NC(=O)[C@H](Cc1c[nH]cn1)NC(=O)[C@H](Cc1ccc(O)cc1)NC(=O)[C@H](C)NC(=O)[C@H](CC(=O)O)NC(=O)[C@H](CCC(=O)O)NC(=O)[C@H](Cc1c[nH]cn1)NC(=O)[C@@H](N)Cc1ccc(O)cc1)C(=O)N[C@H](C(=O)N[C@@H](C)C(=O)N[C@@H](Cc1c[nH]cn1)C(=O)N[C@@H](CC(C)C)C(=O)N[C@@H](CC(C)C)C(=O)O)C(C)C", "test system": "mouse, SN model", "conditions": "dose not given", "endpoint": "serum creatinine", "value": "0.58 ± 0.07 mg/dL"}
{"SMILES": "CN(C)C(CNC(=O)Nc1cc(C(F)(F)F)ccc1N1CCOCC1)c1ccncc1 (centres unmarked)", "test system": "mouse, serum", "conditions": "intraperitoneal, 360 mg/kg single dose", "endpoint": "serum anion gap", "value": "27 mmol/L"}
{"note": "Repeated from above:"}
{"SMILES": "CC(C)[C@H](NC(=O)[C@H](Cc1c[nH]c2ccccc12)NC(=O)[C@H](Cc1ccccc1)NC(=O)[C@@H](NC(=O)[C@@H](NC(=O)[C@H](CCCCN)NC(=O)[C@@H](N)CCCCN)C(C)C)C(C)C)C(=O)N[C@@H](CCCCN)C(=O)N[C@@H](Cc1ccccc1)C(=O)N[C@@H](CCCCN)C(N)=O", "test": "ELISA, item: IgG2b", "test system": "mouse, serum", "conditions": "iv, 500 µg/kg twice, 5 days", "endpoint": "serum antibody level", "value": "0.265 ± 0.024 OD490"}
